Results of several laboratories.
A part holds a random share of what one study measured.

Sample 1
Target: Histone acetyltransferase KAT6A, winged helix 1, GST fusion (KAT6A, Homo sapiens, UniProt Q92794, residues 1-85)
Technique: protein binding microarray
Form: double-stranded DNA, one strand shown
Matrix: in vitro
Concentration: not given
Setting: 8-mer, flanks averaged, mean of 2 arrays, mostly near background
Baseline: not given
Reading: higher = stronger binding
Endpoint: E-score
Target sequence (chain): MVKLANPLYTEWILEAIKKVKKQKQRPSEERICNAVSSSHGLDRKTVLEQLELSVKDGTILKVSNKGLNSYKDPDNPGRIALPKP
ACGCTGCT: -0.0139
GCCTAGAA: 0.00819
GGGCGCTA: 0.201
CTAAGAAC: -0.14

Sample 2
Target: Sal-like protein 4, full length isoform A (SALL4, Homo sapiens, UniProt Q9UJQ4, residues 1-1053)
UniProt Q9UJQ4, sequence (whole entry, looked up): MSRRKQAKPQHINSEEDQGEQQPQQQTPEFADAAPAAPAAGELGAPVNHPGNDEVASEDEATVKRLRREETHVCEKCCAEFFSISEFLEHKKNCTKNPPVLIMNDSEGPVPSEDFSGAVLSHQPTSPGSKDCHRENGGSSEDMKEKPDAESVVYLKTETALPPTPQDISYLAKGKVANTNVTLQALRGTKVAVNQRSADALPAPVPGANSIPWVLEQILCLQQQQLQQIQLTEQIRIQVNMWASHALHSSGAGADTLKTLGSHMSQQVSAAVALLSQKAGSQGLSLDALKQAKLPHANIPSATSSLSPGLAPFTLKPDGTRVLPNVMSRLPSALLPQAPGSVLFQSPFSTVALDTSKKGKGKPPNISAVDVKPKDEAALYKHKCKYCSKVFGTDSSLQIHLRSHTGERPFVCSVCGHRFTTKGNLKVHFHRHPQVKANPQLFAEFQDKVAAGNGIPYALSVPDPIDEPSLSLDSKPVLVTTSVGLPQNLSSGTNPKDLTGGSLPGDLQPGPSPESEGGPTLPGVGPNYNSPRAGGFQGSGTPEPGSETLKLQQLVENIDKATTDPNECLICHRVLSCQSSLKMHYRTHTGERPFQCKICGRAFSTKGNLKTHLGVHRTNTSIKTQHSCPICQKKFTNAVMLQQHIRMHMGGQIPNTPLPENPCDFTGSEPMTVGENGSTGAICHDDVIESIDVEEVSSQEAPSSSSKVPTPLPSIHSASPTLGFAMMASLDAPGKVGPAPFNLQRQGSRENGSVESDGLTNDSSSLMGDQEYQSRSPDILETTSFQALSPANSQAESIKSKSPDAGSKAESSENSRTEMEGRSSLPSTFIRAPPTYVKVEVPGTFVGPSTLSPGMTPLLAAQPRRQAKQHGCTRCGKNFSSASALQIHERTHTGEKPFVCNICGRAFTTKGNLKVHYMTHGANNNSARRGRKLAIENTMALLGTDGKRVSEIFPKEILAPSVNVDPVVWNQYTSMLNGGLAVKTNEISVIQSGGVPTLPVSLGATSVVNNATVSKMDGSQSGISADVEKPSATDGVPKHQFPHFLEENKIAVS
Technique: universal PBM
Form: double-stranded DNA, one strand shown
Matrix: in vitro
Concentration: 600 nM
Setting: 8-mer, flanks averaged, mean of replicates
Reading: higher = stronger binding
Endpoint: E-score
GCAGTAGA: -0.0651
GGCCCCCA: -0.401
TAAACCCA: 0.18
ATGCCTTC: -0.105

Sample 3
Target: Phosphate system positive regulatory protein PHO4, full length, GST-tagged (PHO4, Saccharomyces cerevisiae, UniProt P07270, residues 1-312)
Technique: competition protein-binding microarray
Form: double-stranded DNA, one strand shown
Matrix: in vitro
Concentration: 2 µM
Setting: whole 60-bp probe, lowest competitor level
With: Cbf1 competitor, 0.05 µM
Reading: higher = stronger binding
Endpoint: fluorescence intensity
Constant ends, left off below: … GTCTTGATTCGCTTGACGCTGCTG
Residues (chain): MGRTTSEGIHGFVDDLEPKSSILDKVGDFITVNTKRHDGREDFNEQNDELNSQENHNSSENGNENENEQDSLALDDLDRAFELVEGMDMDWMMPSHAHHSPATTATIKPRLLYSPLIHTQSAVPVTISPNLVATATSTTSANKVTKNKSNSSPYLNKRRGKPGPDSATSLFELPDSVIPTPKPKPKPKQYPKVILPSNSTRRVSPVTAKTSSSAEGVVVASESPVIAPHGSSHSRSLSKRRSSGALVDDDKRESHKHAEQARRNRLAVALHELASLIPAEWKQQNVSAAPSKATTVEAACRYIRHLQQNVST
AAATTACTAAGTTGCTAGGTGGGTGACGCCGTATGA: 3940 a.u.
CTTTCCCGATCTTTTCACGTGGAGTTAGCACATTTG: 12700 a.u.
CGTCCTAGTGATTGTCACATGACTTCCATGAGGAAG: 6660 a.u.
TGCCTCTTTTTTCTACACATGCAGTGTTAAATCCCA: 8180 a.u.
CCAAGCCTGTAAATCGGTGTGACGGACACCAGAATA: 3100 a.u.

Mixed results
PhoQ, residues 284 288 289 292 302 303 TLMATV
fold induction (PhoP, residues 12 14 15 18 19 VHSCL (Escherichia coli, UniProt P23836); Sort-seq, item: YFP reporter; E. coli; PhoQ-PhoP variant library, with: 10 µM Mg2+; baseline: high Mg2+ state, higher = stronger signaling): 4.48

For quick reference, copied from above (sample 1):
GCCTAGAA: 0.00819
